Measurements of several laboratories.
Every numbered part comes from another study and shows a few of its results, in no order.

Study 1
Target: Sal-like protein 4, full length isoform B (SALL4, Homo sapiens, UniProt Q9UJQ4-2, residues 1-616)
Method: universal PBM
Molecule type: double-stranded DNA, one strand shown
Medium: in vitro
Concentration: not given
Setting: 8-mer, flanks averaged, mean of replicates
Reading: higher = stronger binding
Construct (chain): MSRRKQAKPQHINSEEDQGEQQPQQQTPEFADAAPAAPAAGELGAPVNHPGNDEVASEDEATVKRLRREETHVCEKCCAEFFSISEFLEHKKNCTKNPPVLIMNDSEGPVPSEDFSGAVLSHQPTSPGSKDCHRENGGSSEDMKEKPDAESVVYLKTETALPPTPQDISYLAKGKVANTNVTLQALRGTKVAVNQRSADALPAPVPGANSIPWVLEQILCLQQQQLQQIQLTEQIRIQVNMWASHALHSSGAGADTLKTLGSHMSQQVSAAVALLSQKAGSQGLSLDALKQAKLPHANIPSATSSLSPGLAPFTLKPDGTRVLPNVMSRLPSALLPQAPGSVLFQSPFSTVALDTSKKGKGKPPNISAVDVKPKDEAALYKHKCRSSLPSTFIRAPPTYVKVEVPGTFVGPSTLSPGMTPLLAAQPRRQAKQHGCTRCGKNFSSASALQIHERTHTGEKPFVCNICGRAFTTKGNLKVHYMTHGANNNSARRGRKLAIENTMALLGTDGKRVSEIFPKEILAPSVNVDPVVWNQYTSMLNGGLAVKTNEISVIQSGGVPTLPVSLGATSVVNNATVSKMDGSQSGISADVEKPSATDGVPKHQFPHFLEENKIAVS
Strand | E-score
CAAAGAAA | 0.101
ACACTTCG | 0.061
AGTGTAAA | 0.154
CCCCCAAC | -0.318
CGCAGAAA | 0.00165
CCCCCGGG | -0.437
AACCGACT | -0.221
CTTTCGAA | 0.0699
AGACCCCT | -0.235
GTCAGTTA | 0.072
GAGACCGA | -0.279
CTGTCCAC | -0.102
TTTCGAAA | 0.258
CATTCCAA | 0.0435
GGATCAAC | 0.0287
CAGGATAA | 0.097
GGAAGCTA | -0.089
ACTCGTAG | 0.00834
AATCGCGT | -0.0858
ACTGCCCG | -0.162
ATACGCGG | -0.064
CCCAGCGG | -0.298
CACCGCTG | -0.188
CACCGCTA | -0.0621
GAGATGAC | -0.0933

Study 2
Target: PABPC1L2, full length, GST fusion (mouse, UniProt A0ABA7IW68)
Method: RNAcompete
Molecule type: RNA
Medium: in vitro
Concentration: 20 nM
Setting: 7-mer, probes averaged, single round
Baseline: mean of 7-mers
Reading: higher = stronger binding
Construct (chain): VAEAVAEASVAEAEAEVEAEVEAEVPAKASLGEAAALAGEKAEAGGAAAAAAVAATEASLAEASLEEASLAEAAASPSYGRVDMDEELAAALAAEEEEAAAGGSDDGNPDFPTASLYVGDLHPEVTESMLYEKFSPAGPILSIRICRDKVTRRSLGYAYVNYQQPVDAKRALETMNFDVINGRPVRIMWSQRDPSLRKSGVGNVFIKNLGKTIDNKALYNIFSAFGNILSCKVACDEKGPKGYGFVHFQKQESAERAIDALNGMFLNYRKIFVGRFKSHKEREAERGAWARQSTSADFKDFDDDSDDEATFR
Strand | 7-mer Z-score
GUAGUUG | -0.264
CGAACAG | -0.0591
AGUGUGG | 0.0551
GGUGUGA | 0.0261
ACUUCAU | -0.159
CGCAGCA | -0.251
GGUUUAA | -0.204
GACACGA | 0.00979
CACGCAU | -0.253
AUGCCCA | -0.161
CCCCCCC | -0.51
CUGUGGA | 0.189
UGCAUCG | -0.302
UAUUCCG | -0.306
UCAUUCG | -0.313
GGGGGCG | 0.452
UCAGCAA | 0.0986
AUUUAUA | 0.24
GGCUGCC | -0.296
CUUGAGA | -0.108
UCCUACU | -0.248
CUUAAGG | -0.108
CCCCAAU | -0.353
AGCCCUA | -0.171
GUAUUUA | 0.095

Study 3
Target: Histone acetyltransferase KAT6A, both winged helices, GST fusion (KAT6A, Homo sapiens, UniProt Q92794, residues 1-181)
Method: protein binding microarray
Molecule type: double-stranded DNA, one strand shown
Medium: in vitro
Concentration: not given
Setting: 8-mer, flanks averaged, mean of 2 arrays, mostly near background
Baseline: not given
Reading: higher = stronger binding
Target sequence (chain): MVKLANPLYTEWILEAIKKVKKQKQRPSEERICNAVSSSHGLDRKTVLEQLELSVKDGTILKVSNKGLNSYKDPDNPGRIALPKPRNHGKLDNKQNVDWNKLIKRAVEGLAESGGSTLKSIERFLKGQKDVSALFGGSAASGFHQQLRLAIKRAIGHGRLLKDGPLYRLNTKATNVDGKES
Strand | E-score
ACACTGCG | 0.2
CTCTCCCC | -0.252
CCGCACAA | 0.171
ACCGACTA | 0.0903
CATTGTCA | -0.149
CAGGTATA | -0.0619
CAACTAGC | 0.0133
AAACTTGG | -0.0972
ATTATCTA | -0.0558
AGAAGAAT | -0.164
CGAACGTA | -0.00723
GGACCTTA | -0.13
CGATTAGC | 0.0631
CCGGAGCG | 0.317
AAAGTGGT | -0.201
ACCGCGAC | 0.261
CACTGCTC | -0.147
GTGACTAA | -0.00313
GACCGTAC | 0.182
ATATTTTG | -0.127
GCCTACAC | -0.0845
ATATCTTG | -0.102
AGGGACCG | -0.0224
GGGAACGA | 0.0217
ACGTCCTC | -0.126

Study 4
Target: RING finger protein unkempt homolog, zinc fingers 1-6, GST-SBP tag (UNK, Homo sapiens, UniProt Q9C0B0, residues 30-357)
Chain of UniProt Q9C0B0 (30-357, looked up): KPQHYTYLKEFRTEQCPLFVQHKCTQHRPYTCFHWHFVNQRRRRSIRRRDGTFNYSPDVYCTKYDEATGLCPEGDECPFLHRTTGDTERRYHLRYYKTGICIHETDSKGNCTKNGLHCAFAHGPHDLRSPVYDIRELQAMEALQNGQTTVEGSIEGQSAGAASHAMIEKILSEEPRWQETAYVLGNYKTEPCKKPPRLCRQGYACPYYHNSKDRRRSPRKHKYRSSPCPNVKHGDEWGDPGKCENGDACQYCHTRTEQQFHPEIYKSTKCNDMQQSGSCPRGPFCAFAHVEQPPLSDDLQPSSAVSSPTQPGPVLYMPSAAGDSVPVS
Method: RNA Bind-n-Seq
Molecule type: RNA
Medium: in vitro
Concentration: not given
Setting: RNA with constant flanks, ends assumed
Baseline: input RNA pool
Reading: higher = stronger binding
Strand | bound/input enrichment [ratio]
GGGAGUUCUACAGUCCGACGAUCAGGAAACAGAUCAAUAAUAUAUUUUAUAGGUUUAUCUAUGAGACAGAGCAUCACAAUGGCACCGCGGAGUUACUGGAGAUCCUGGGAAGUAUAAUUAAUGGAUUUGCCUUACCACUGAAGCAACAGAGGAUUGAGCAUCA | 1.18
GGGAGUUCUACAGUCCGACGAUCGGAUUUGGAGAUGCAGUGGAUAAUAGUAAUUGCUGGCAGCCUGUUAUCGACUACAUUGACCGUAAAUUUGAGGACUACCUAAAUGCAGAAUCACGAGUGAACAGACGUCAGAUGCCUGAUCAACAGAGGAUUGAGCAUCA | 0.32
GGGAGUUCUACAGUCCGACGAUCAAAGAACUACUGAGGCAAGGCAGCAAAUUUAGGAGAGACAUUUCAACAAUAUUGACCGAGUCCGGAUUCCAAAUUAAAAAGAAAACUAAGACAUUAUACAUCAACAAAGCCAAUGUGUGGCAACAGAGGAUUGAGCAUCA | 2.91
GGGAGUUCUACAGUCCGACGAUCUCAAAAAAAAGUGUAUUUCAGACUUGGUAUUCCUACUGUGGGGUGUGGUUUUCCUUUGUUUUCCGCCGCAAAUUUGGAUGUAGACUGACAGACAUAGCUGAAUGUCUUAAUAAAUUUAAACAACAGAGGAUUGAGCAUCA | 0.555
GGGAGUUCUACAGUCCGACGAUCGUGUAGAGUGUUUAACCGAUGAGUAGAGUACAGUAUUCUCUGGUUAAUAAAAUUAUUCUAUUCCGUGCACUUGUUGCACAGAUGAACAUAGACACAAAGAGGCUAUAUGUCUUCUGCUGACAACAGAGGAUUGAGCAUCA | 0.167
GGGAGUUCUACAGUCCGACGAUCUGUUGCUGCCUUUAUGGACAUGGGUACCAAUUGCUUUUGUAAUAUGGUAAAAAUGUGAGCCCGCACUUCUGCGUUCCUUUUGAUUUUUUUUUUUUAACAUGUAUUCAGAUUGAGAAAUAUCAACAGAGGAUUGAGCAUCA | 0.341
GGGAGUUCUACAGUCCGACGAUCUUAUUUUCAGUUUGUAAUUUUUUUUUUUAAUUUACGUGUAUGUACUCACUAAGAAAGUACAUUUUCCCGGGGCUAAGGAUAUGGCUCAGUGGUAGAGCACUUGCCUAACAUACACAAAGCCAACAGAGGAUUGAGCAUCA | 12.8
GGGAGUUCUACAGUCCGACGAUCUACCUCUUACAAAAAAAAGAAAAAAAAAGAAAAAGUUCAUUUCUUCAUUCUGUUUGUAUCCCGCGAAGCUGAAUGUCAGAAGCCCCUCUGUCCACACACAAAGUCUGCAUGUAUUGGUCGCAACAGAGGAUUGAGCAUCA | 0.727
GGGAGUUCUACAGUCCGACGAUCUUUUUUACACCAUACGUGUAUCCAGCCACAUGGCCAGAAGAUGACAUCUUCCGACAAGCUAUCCGUCUUCUGAUUGUAACAAAUGUUGGUGCUUACAUCCUUUAUUUCUUCUGUGCAACACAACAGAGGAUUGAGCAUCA | 0.302
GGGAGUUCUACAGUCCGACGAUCCAGAGGAACCAAUGGGCAUUGGUGGCUCCUGUACCACAUUCCUUUUAUUCAUUUGAACUAACCGUGGUUCAGAAUUAUCUUUACGCUGUCAACAGUAAGCGCAUGCUCUGCUAUGAUCCUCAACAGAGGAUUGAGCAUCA | 0.164
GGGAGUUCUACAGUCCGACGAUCUGCUGCAGGAAAAGAGAUCAUAUGGCACGGGCGGACAAAAGAAGAACCAGCUCAUUAUUGCCGUAUUUGUGAGGUGGAGGUUUUUGAUCUGCUUUUUGUCACUAAUGAGAGUAAUUCUCGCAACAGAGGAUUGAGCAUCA | 0.1
